Results from different studies.
Protocols differ between the studies behind these lines. Values joined by “and” are separate records of one study, mostly repeats; a detail may differ. Numbers after ± are the reported error.
T1: ATRX ADD domain 167-289 K251R/F284Y (Homo sapiens); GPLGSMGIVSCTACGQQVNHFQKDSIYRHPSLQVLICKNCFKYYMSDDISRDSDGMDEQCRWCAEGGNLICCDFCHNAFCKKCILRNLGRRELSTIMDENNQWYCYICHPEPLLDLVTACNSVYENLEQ
B1: Bcl2l11 (Mus musculus, UniProt O54918-2); chain MAKQPSDVSSECDREGGQLQPAERPPQLRPGAPTSLQTEPQDRSPAPMSCDKSTQTPSPPCQAFNHYLSAMASIRQSQEEPEDLRPEIRIAQELRRIGDEFNETYTRRVFANDYREAEDHPQMVILQLLRFIFRLVWRRH
B2: Flrt2 35-362 (Mus musculus, UniProt Q8BLU0); chain ACPSVCRCDRNFVYCNERSLTSVPLGIPEGVTVLYLHNNQINNAGFPAELHNVQSVHTVYLYGNQLDEFPMNLPKNVRVLHLQENNIQTISRAALAQLLKLEELHLDDNSISTVGVEDGAFREAISLKLLFLSKNHLSSVPVGLPVDLQELRVDENRIAVISDMAFQNLTSLERLIVDGNLLTNKGIAEGTFSHLTKLKEFSIVRNSLSHPPPDLPGTHLIRLYLQDNQINHIPLTAFANLRKLERLDISNNQLRMLTQGVFDHLSNLKQLTARNNPWFCDCSIKWVTEWLKYIPSSLNVRGFMCQGPEQVRGMAVRELNMNLLSCPT
B3: CFH domains 1108-1231 W1183R (Homo sapiens, UniProt P08603); sequence looked up; chain KCGPPPPIDNGDITSFPLSVYAPASSVEYQCQNLYQLEGNKRITCRNGQWSEPPKCLHPCVISREIMENYNIALRRTAKQKLYSRTGESVEFVCKRGYRLSSRSHTLRTTCWDGKLEYPTCAKR
B4: MDM4 23-190 (Homo sapiens, UniProt O15151); chain GPLGSQINQVRPKLPLLKILHAAGAQGEMFTVKEVMHYLGQYIMVKQLYDQQEQHMVYCGGDLLGELLGRQSFSVKDPSPLYDMLRKNLVTLATATTDAAQTLALAQDHSMDIPSQDQLKQSAEESSTSRKRTTEDDIPTLPTSEHKCIHSREDEDLIENLAQDETSRLDLGF
B5: CFH 1108-1231 W1183L (Homo sapiens, UniProt P08603); sequence looked up; chain KCGPPPPIDNGDITSFPLSVYAPASSVEYQCQNLYQLEGNKRITCRNGQWSEPPKCLHPCVISREIMENYNIALRLTAKQKLYSRTGESVEFVCKRGYRLSSRSHTLRTTCWDGKLEYPTCAKR
B6: RAP1A (Homo sapiens, UniProt P62834); sequence looked up; chain MREYKLVVLGSGGVGKSALTVQFVQGIFVEKYDPTIEDSYRKQVEVDCQQCMLEILDTAGTEQFTAMRDLYMKNGQGFALVYSITAQSTFNDLQDLREQILRVKDTEDVPMILVGNKCDLEDERVVGKEQGQNLARQWCNCAFLESSAKSKINVNEIFYDLVRQINRKTPVEKKKPKKKSCLLL
B7: STAMBPL1 C402S (Homo sapiens, UniProt Q96FJ0); sequence looked up; chain MDQPFTVNSLKKLAAMPDHTDVSLSPEERVRALSKLGCNITISEDITPRRYFRSGVEMERMASVYLEEGNLENAFVLYNKFITLFVEKLPNHRDYQQCAVPEKQDIMKKLKEIAFPRTDELKNDLLKKYNVEYQEYLQSKNKYKAEILKKLEHQRLIEAERKRIAQMRQQQLESEQFLFFEDQLKKQELARGQMRSQQTSGLSEQIDGSALSCFSTHQNNSLLNVFADQPNKSDATNYASHSPPVNRALTPAATLSAVQNLVVEGLRCVVLPEDLCHKFLQLAESNTVRGIETCGILCGKLTHNEFTITHVIVPKQSAGPDYCDMENVEELFNVQDQHDLLTLGWIHTHPTQTAFLSSVDLHTHCSYQLMLPEAIAIVCSPKHKDTGIFRLTNAGMLEVSASKKKGFHPHTKEPRLFSICKHVLVKDIKIIVLDLR
B8: SDC4 ectodomain 19-145 (Homo sapiens, UniProt P31431); heparan sulfate chains; sequence looked up; chain ESIRETEVIDPQDLLEGRYFSGALPDDEDVVGPGQESDDFELSGSGDLDDLEDSMIGPEVVHPLVPLDNHIPERAGSGSQVPTEPKKLEENEVIPKRISPVEESEDVSNKVSMSSTVQGSNIFERTE
B9: C1S 438-688 S632A (Homo sapiens, UniProt P09871); chain IIGGSDADIKNFPWQVFFDNPWAGGALINEYWVLTAAHVVEGNREPTMYVGSTSVQTSRLAKSKMLTPEHVFIHPGWKLLEVPEGRTNFDNDIALVRLKDPVKMGPTVSPICLPGTSSDYNLMDGDLGLISGWGRTEKRDRAVRLKAARLPVAPLRKCKEVKVEKPTADAEAYVFTPNMICAGGEKGMDSCKGDAGGAFAVQDPNDKTKFYAAGLVSWGPQCGTYGLYTRVKNYVDWIMKTMQENSTPRED
B10: JAZ10 (Arabidopsis thaliana, UniProt Q93ZM9); sequence looked up; chain MSKATIELDFLGLEKKQTNNAPKPKFQKFLDRRRSFRDIQGAISKIDPEIIKSLLASTGNNSDSSAKSRSVPSTPREDQPQIPISPVHASLARSSTELVSGTVPMTIFYNGSVSVFQVSRNKAGEIMKVANEAASKKDESSMETDLSVILPTTLRPKLFGQNLEGDLPIARRKSLQRFLEKRKERLVSTSPYYPTSA
B11: PUX9 390-469 (Arabidopsis thaliana, UniProt Q4V3D3); chain AITLLVRMPDSSRHGRRFLKSDKLKYLFDFIDAAGLVKPGTYRVVRPYPRRAFSIQDGALTFEELSLTNKQEALFLELLV
B12: Cacna1c 1647-1777 (Mus musculus, UniProt Q01815); sequence looked up; chain NALSLQAGLRTLHDIGPEIRRAISGDLTAEEELDKAMKEAVSAASEDDIFRRAGGLFGNHVTYYQSDSRGNFPQTFATQRPLHINKTGNNQADTESPSHEKLVDSTFTPSSYSSTGSNANINNANNTALGR
B13: PLXNA2 RBD 1490-1600 (Homo sapiens, UniProt O75051); sequence looked up; chain LIRQQIEYKTLILNCVNPDNENSPEIPVKVLNCDTITQVKEKILDAVYKNVPYSQRPRAVDMDLEWRQGRIARVVLQDEDITTKIEGDWKRLNTLMHYQVSDRSVVALVPK
B14: EFR3A 721-791 (Homo sapiens, UniProt Q14156); chain SNTEEITFEALKKAIDTSGMEEQEKEKRRLVIEKFQKAPFEEIAAQCESKANLLHDRLAQILELTIRPPPS
B15: Xrs2 1-325 (Saccharomyces cerevisiae, UniProt P33301); chain MWVVRYQNTLEDGSISFISCCLQAFKTYSIGRSSKNPLIIKNDKSISRQHITFKWEINNSSDLKHSSLCLVNKGKLTSLNKKFMKVGETFTINASDVLKSTIIELGTTPIRIEFEWINEVWNIPPHLTQFRTMLSEYGISTEISINDIPANLMISDYPKSEDNSIRELYALVSTIPMKKSRFLMELCNTLLPTSKTNLKFDEMWNDMISNPEYNVFDFDPNILLSKFMRLNNIRVLTTIKSEPRLSSLLRTFNINLFAFDNIDSLYKYVDSLEASTEYLILTTTDKKENGKILCTIKTMLTSIIDGTLSAVINMKGASSRTLDNG
B16: OTULIN 55-352 W96R/C129S (Homo sapiens, UniProt Q96BN8); sequence looked up; chain MYRAADEIEKEKELLIHERGASEPRLSVAPEMDIMDYCKKERRGNTQKATCMKMGYEEVSQKFTSIRRVRGDNYSALRATLFQAMSQAVGLPPWLQDPELMLLPEKLISKYNWIKQWKLGLKFDGKNEDLVDKIKESLTLLRKKWAGLAEMRTAEARQIACDELFTNEAEEYSLYEAVKFLMLNRAIELYNDKEKGKEVPFFSVLLFARDTSNDPGQLLRNHLNQVGHTGGLEQVEMFLLAYAVRHTIQVYRLSKYNTEEFITVYPTDPPKDWPVVTLIAEDDRHYNIPVRVCEETSL
Chain of UniProt P01024 (whole entry, looked up): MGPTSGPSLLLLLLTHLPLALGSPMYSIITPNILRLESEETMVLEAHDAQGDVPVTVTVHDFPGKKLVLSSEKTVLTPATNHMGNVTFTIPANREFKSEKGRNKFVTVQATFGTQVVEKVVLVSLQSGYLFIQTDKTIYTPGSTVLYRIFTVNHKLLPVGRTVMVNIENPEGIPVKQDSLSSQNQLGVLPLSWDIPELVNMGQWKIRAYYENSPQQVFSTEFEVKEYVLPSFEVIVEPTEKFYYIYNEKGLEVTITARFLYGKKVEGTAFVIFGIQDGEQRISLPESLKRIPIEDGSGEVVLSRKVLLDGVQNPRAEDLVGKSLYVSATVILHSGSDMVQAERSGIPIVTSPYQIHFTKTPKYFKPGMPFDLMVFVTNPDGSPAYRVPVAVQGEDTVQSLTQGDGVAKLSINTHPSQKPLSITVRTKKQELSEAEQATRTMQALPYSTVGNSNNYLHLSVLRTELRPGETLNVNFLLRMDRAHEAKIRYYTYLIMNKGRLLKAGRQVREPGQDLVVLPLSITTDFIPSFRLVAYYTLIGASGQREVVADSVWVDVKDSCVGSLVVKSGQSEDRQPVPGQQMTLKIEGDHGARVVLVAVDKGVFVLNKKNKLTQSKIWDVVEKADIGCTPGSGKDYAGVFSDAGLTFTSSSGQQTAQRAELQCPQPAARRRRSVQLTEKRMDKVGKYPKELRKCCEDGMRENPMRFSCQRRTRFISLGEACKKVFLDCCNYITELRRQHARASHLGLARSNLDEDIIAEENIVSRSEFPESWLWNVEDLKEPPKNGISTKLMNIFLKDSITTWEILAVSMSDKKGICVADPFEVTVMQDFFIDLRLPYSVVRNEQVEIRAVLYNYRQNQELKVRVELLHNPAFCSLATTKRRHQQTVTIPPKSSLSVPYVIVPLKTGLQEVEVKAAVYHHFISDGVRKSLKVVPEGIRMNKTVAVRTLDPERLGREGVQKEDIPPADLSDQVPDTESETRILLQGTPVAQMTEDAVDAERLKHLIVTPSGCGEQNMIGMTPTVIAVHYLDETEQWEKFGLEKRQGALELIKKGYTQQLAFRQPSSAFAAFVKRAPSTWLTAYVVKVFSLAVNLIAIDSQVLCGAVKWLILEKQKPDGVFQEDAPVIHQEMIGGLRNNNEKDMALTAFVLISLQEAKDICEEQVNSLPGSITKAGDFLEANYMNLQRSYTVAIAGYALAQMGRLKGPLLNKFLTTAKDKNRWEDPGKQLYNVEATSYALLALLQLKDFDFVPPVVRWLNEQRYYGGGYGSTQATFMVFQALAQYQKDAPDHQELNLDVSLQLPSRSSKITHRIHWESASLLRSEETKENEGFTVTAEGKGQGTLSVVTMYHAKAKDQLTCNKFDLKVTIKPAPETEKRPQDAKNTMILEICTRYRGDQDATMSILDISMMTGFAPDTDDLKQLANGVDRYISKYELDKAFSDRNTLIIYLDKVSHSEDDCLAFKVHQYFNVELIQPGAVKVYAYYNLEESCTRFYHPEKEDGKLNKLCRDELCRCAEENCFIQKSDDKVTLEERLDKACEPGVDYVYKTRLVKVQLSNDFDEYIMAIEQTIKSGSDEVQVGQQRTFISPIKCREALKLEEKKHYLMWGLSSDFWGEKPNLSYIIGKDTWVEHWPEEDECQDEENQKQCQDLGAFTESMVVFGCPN
Chain of UniProt Q9H160 (whole entry, looked up): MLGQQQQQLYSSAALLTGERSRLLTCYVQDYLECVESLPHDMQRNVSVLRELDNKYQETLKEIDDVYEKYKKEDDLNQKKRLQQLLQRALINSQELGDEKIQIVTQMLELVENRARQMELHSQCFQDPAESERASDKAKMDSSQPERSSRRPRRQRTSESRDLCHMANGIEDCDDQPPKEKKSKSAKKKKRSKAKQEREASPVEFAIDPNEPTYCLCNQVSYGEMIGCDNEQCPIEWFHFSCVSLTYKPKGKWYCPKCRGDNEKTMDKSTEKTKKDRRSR
Chain of UniProt Q92730 (whole entry, looked up): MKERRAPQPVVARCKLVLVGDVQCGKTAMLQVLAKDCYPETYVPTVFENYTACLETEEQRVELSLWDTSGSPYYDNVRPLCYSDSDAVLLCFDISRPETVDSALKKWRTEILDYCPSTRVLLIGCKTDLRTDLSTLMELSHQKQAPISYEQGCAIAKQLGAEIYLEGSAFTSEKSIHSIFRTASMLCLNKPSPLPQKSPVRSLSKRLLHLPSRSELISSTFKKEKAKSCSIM
Chain of UniProt P27986 (whole entry, looked up): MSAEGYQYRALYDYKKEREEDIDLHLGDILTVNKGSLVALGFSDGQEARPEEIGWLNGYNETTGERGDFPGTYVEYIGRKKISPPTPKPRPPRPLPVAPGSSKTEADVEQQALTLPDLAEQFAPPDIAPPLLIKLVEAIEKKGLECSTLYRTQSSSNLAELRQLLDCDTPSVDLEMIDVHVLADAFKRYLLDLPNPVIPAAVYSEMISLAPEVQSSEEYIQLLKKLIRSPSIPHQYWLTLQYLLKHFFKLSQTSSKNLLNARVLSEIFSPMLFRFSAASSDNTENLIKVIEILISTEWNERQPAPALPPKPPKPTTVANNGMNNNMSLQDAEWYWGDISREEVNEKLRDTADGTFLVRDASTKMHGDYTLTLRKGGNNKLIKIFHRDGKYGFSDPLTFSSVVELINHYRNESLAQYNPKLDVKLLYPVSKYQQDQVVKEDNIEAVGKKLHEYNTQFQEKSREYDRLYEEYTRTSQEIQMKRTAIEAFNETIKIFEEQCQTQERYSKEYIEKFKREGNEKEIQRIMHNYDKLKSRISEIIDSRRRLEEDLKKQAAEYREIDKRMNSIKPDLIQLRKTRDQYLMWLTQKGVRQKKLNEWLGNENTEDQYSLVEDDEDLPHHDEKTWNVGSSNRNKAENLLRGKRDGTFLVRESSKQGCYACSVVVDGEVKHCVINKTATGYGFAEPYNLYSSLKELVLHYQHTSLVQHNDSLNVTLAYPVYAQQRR
Chain of UniProt P54609 (whole entry, looked up): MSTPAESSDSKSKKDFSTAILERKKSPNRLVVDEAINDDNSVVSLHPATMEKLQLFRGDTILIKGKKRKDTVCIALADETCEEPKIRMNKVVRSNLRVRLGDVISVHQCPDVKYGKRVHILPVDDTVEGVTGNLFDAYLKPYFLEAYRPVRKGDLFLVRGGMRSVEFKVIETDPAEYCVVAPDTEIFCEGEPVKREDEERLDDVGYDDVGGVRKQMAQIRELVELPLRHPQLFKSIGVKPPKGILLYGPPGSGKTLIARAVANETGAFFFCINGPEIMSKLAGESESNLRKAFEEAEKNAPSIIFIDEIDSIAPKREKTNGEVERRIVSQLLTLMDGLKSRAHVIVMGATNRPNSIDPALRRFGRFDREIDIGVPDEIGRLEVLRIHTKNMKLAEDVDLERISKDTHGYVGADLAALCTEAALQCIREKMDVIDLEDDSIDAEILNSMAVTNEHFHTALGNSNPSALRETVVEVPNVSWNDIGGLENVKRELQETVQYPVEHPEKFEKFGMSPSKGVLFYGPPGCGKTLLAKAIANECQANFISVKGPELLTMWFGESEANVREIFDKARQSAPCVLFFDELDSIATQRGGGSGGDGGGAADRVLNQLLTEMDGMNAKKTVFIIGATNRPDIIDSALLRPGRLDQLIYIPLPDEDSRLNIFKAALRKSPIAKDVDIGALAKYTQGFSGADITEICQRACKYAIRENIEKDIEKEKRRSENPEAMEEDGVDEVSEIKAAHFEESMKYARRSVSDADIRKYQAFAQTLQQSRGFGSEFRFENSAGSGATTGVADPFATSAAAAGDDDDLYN
Chain of UniProt P05155 (whole entry, looked up): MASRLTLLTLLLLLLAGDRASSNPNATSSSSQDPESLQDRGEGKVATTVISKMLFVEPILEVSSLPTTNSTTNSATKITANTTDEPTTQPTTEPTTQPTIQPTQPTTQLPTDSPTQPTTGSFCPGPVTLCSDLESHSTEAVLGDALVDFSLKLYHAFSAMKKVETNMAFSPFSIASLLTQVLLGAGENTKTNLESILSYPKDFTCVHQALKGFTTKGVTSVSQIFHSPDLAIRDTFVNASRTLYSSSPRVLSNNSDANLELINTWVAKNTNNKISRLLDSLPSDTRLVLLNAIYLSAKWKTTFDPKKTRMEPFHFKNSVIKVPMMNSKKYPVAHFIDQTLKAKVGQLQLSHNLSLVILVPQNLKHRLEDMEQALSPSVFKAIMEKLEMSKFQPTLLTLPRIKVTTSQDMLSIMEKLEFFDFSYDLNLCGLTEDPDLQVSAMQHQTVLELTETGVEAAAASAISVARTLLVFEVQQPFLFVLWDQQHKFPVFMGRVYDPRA
Chain of UniProt Q16236 (whole entry, looked up): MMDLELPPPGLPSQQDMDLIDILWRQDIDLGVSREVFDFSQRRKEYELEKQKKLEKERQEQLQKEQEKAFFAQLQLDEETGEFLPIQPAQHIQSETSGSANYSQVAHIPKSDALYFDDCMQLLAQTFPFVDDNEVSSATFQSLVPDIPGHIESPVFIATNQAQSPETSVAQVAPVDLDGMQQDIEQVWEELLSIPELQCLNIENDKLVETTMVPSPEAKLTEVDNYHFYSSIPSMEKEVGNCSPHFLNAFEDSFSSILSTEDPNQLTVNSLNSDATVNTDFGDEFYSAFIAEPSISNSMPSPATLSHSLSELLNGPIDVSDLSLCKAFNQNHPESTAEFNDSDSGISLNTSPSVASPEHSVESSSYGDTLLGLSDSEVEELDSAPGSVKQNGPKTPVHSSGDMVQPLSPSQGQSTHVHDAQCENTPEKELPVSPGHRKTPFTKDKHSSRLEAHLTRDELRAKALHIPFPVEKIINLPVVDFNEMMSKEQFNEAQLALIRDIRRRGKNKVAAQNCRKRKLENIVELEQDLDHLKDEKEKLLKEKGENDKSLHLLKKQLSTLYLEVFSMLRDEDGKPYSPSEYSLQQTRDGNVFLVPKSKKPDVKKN

Molecule | partner | test | test system | conditions | Kd
CREBBP KIX domain (Homo sapiens, UniProt Q92793) | CREB fragment, pSer133, FITC label (Homo sapiens) | fluorescence polarization |  |  | 0.41 µM
B1 (Bcl2l11) | BCL2L1 (Homo sapiens, UniProt Q07817-1) | FRET or BRET |  | not purified | 6 µM
B2 (Flrt2 35-362) | Unc5D 31-382 (Rattus norvegicus, UniProt F1LW30) | SPR |  |  | 0.3 µM
B3 (CFH domains 1108-1231 W1183R) | C3 C3dg 955-1303 (Homo sapiens, UniProt P01024) | SPR |  |  | 1.9 ± 0.1 µM
SCN2A fragment Y1916A (Homo sapiens) (sequence not shown) | CALM1 (Homo sapiens, UniProt P0DP23) | fluorescence titration |  | with: CaCl2 | 0.0733 µM
B4 (MDM4 23-190) | TP53 1-312 (UniProt P04637) | ITC |  |  | 0.073 µM
GGYMDMSKDESVDYVPML (PDGFRB 738-755; doubly phosphorylated) | PIK3R1 80-724 (Homo sapiens, UniProt P27986) | ITC | peptide |  | 0.66 µM
B5 (CFH 1108-1231 W1183L) | C3 996-1303 (Homo sapiens, UniProt P01024) | SPR |  |  | 8.2 ± 0.3 µM
B6 (RAP1A) | PREX1 1-791 (Homo sapiens, UniProt Q8TCU6) | fluorescence titration |  | with: mant-GTP 1 µM | 86 ± 8 µM
CTNNA1 (Homo sapiens, UniProt P35221) | CDH1/CTNNB1 ECT-bound 731-882 (Homo sapiens) | BLI |  |  | 0.0118 ± 0.0028 µM
ARTKQTARKS (histone H3 2-11 (UniProt P68431); K4me3; sequence looked up) | ING2 199-261 (Homo sapiens, UniProt Q9H160) | ITC | peptide |  | 4.1 µM and 6.5 µM
B7 (STAMBPL1 C402S) | UBB mature (UniProt P0CG47) | ITC |  |  | 12.4 ± 3.2 µM
B8 (SDC4 ectodomain 19-145) | FGF2, 125I label (UniProt P09038) | radioligand binding |  | cell-free | 0.0027 µM
B9 (C1S 438-688 S632A) | SERPING1 111-500 (Homo sapiens, UniProt P05155) | SPR |  | with: Ca2+ | 2.6 µM
B10 (JAZ10) | MYC3 5-242, Alexa Fluor 488 label (Arabidopsis thaliana, UniProt Q9FIP9) | MST |  | 200 nM, labelled protein | 0.43 ± 0.38 µM
B11 (PUX9 390-469) | CDC48A 1-463 (Arabidopsis thaliana, UniProt P54609) | ITC |  | 25 °C | 6.6 ± 0.6 µM
ARTKQTARKS (histone H3 1-10; K4me3) | ING2 189-262 M219A (Arabidopsis thaliana, UniProt B3H615) | ITC | peptide |  | 23.4 ± 3.6 µM

Molecule | partner | test | test system | conditions | Kd
PRPRPRPRPRPRPRPRPRPRPRPRPRPRPRPRPRPRPRPR ((PR)20 20 repeats; TAMRA label N-terminal) | FUS 1-371 (Homo sapiens, UniProt P35637) | fluorescence polarisation | peptide |  | 0.051 ± 0.0084 µM
B12 (Cacna1c 1647-1777) | Jph2 1-440 S165G (Mus musculus, UniProt Q9ET78) | ITC |  |  | 6.55 µM
KLLMIIHDRREFAKFEKEKMNAKWDTGENPIYKSAINNFKNPNYGRKAGL (ITGB1 752-801 Q778G/P786A (Homo sapiens, UniProt P05556-5); sequence looked up) | Tln1 309-405 (Mus musculus, UniProt P26039) | NMR titration |  |  | 388 µM
CREBBP TAZ1 (Homo sapiens) | NFE2L2 155-220, fluorescein label (Homo sapiens, UniProt Q16236) | fluorescence titration |  |  | 32 ± 8.2 µM
rituximab IgG | CD20 peptide fragment, cyclic/C-terminal amide | BLI |  |  | 2.21 µM
B13 (PLXNA2 RBD 1490-1600) | RND1 5-200 (Homo sapiens, UniProt Q92730) | SPR |  |  | 8.61 ± 1.98 µM
AATKQTARKS (H3C1 1-10 R2A) | T1, ATRX ADD domain 167-289 K251R/F284Y (Homo sapiens) | ITC | peptide |  | 127 µM
B14 (EFR3A 721-791) | TTC7A/FAM126A FAM126A 1-308 | BLI |  |  | 0.000718 µM
MMHVNNFPFRRHSWICFDVD (PDE4D 1-20; pS13) | AKAP6 (Homo sapiens, UniProt Q13023-1) | SPR | peptide |  | 1.5 µM
MBL-A mature, hydroxylysine, hydroxyproline in collagen (Rattus norvegicus, UniProt P19999) | C1r/C1s CUB1-EGF-CUB2 (Homo sapiens) | SPR |  | with: CaCl2 140 mM | 0.112 µM
petF ferredoxin (Synechocystis sp. PCC 6803, UniProt P27320) | narB (Synechococcus sp. PCC 7942, UniProt P39458) | UV-visible difference titration |  |  | 7.8 ± 2.1 µM
CALLLSAPRR (GOT2 (Gallus gallus); fluorescein label) | HSPA9 mature A475W (Homo sapiens, UniProt P38646) | FP | peptide |  | 36.3 µM
B15 (Xrs2 1-325) | Sae2 phosphopeptide, pT5, N-terminal FAM (Saccharomyces cerevisiae) | fluorescence polarization |  |  | 2.3 µM
B14 (EFR3A 721-791) | PI4KA/TTC7A/FAM126A TTC7A/FAM126A | BLI |  |  | 0.00034 ± 0.00013 µM
SPTBN2 actin-binding domain Y272H (sequence not shown) | ACTA1 F-actin (Oryctolagus cuniculus, UniProt P68135) | co-sedimentation |  |  | 15.3 µM
B16 (OTULIN 55-352 W96R/C129S) | linear di-ubiquitin fragment | ITC |  |  | 19.2 µM

Excerpt of the above:
Molecule | partner | test | test system | conditions | Kd
B2 (Flrt2 35-362) | Unc5D 31-382 (Rattus norvegicus, UniProt F1LW30) | SPR |  |  | 0.3 µM
B3 (CFH domains 1108-1231 W1183R) | C3 C3dg 955-1303 (Homo sapiens, UniProt P01024) | SPR |  |  | 1.9 ± 0.1 µM
SCN2A fragment Y1916A (Homo sapiens) (sequence not shown) | CALM1 (Homo sapiens, UniProt P0DP23) | fluorescence titration |  | with: CaCl2 | 0.0733 µM
B4 (MDM4 23-190) | TP53 1-312 (UniProt P04637) | ITC |  |  | 0.073 µM
